Assay results gathered from unrelated publications.
Each line is one published result; not all experiments were run side by side. Numbers after ± are the reported error.
KLRK1 with MICA: NKG2-D type II integral membrane protein, with MICA (KLRK1, Homo sapiens, UniProt P26718)
UniProt P26718, sequence (whole entry, looked up): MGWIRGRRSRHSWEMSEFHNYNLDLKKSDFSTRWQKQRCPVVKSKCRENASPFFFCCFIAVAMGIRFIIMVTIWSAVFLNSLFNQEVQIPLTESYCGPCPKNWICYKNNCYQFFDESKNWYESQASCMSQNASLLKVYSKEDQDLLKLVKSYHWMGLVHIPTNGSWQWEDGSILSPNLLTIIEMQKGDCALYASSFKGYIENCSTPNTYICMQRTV
lasR: Transcriptional activator protein LasR (lasR, Pseudomonas aeruginosa, UniProt P25084)
lecA: PA-I galactophilic lectin (lecA, Pseudomonas aeruginosa, UniProt Q05097)
UniProt P00691, sequence (whole entry, looked up): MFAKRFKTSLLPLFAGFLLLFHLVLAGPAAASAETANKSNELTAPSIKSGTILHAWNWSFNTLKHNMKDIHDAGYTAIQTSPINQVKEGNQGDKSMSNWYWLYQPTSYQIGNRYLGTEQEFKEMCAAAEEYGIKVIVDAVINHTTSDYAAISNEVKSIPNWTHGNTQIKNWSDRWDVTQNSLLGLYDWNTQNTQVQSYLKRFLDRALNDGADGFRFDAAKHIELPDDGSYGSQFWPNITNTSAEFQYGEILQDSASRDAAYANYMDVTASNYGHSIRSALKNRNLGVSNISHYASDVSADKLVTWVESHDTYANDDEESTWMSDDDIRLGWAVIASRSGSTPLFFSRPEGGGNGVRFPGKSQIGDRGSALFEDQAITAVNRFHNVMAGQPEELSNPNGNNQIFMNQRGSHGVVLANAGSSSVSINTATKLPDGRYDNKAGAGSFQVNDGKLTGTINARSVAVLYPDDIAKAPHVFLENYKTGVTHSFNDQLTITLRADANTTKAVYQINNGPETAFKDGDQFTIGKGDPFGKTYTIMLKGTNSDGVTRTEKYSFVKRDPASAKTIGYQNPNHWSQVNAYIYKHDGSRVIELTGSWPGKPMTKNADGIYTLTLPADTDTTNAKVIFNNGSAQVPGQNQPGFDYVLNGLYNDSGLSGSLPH
UniProt P28074, sequence (whole entry, looked up): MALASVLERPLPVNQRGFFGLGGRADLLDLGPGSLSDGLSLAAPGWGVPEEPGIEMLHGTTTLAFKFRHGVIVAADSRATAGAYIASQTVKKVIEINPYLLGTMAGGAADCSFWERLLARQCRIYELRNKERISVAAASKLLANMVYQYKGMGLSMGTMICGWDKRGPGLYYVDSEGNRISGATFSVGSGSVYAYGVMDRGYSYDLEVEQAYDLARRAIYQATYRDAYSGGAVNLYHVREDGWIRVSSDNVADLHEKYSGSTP
UniProt Q6TCG2, sequence (whole entry, looked up): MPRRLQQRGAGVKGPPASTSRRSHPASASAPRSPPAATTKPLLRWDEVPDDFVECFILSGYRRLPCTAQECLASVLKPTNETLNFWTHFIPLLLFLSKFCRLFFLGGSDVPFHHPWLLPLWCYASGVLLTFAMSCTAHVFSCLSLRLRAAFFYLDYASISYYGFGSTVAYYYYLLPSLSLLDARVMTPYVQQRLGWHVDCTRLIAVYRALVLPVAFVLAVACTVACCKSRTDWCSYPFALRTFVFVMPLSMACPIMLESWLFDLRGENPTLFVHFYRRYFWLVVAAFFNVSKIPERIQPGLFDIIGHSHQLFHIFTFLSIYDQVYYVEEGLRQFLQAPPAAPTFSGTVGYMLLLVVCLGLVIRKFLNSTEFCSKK
UniProt Q01827, sequence (whole entry, looked up): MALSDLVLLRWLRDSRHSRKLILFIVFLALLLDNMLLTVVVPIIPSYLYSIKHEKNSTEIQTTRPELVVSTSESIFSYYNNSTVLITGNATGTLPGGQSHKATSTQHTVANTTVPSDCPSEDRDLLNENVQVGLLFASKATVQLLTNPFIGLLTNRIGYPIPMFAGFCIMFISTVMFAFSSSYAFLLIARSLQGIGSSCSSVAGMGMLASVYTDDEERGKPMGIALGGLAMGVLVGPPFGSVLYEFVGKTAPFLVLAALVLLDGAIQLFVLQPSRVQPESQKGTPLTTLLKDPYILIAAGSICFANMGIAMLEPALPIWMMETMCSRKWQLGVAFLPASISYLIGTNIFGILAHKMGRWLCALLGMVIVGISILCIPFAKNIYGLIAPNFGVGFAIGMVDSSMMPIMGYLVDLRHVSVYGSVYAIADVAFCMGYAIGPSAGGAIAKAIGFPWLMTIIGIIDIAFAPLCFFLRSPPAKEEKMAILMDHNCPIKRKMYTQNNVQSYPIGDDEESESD
UniProt P37136, sequence (whole entry, looked up): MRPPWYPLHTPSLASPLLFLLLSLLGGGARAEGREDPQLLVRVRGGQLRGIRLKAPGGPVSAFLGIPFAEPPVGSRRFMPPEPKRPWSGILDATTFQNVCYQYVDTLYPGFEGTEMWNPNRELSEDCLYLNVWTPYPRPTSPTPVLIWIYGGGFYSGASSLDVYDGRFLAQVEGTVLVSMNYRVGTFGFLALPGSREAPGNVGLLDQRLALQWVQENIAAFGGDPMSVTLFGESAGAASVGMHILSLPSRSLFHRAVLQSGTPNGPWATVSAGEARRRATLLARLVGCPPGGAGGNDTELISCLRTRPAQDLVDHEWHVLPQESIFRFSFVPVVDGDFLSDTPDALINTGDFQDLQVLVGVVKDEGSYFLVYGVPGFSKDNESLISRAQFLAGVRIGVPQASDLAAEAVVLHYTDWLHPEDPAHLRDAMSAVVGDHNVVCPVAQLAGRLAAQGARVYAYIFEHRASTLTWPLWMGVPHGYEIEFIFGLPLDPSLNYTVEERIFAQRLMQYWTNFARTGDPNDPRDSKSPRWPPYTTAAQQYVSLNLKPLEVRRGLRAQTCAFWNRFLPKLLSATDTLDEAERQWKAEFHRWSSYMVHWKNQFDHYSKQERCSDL
UniProt Q15858, sequence (whole entry, looked up): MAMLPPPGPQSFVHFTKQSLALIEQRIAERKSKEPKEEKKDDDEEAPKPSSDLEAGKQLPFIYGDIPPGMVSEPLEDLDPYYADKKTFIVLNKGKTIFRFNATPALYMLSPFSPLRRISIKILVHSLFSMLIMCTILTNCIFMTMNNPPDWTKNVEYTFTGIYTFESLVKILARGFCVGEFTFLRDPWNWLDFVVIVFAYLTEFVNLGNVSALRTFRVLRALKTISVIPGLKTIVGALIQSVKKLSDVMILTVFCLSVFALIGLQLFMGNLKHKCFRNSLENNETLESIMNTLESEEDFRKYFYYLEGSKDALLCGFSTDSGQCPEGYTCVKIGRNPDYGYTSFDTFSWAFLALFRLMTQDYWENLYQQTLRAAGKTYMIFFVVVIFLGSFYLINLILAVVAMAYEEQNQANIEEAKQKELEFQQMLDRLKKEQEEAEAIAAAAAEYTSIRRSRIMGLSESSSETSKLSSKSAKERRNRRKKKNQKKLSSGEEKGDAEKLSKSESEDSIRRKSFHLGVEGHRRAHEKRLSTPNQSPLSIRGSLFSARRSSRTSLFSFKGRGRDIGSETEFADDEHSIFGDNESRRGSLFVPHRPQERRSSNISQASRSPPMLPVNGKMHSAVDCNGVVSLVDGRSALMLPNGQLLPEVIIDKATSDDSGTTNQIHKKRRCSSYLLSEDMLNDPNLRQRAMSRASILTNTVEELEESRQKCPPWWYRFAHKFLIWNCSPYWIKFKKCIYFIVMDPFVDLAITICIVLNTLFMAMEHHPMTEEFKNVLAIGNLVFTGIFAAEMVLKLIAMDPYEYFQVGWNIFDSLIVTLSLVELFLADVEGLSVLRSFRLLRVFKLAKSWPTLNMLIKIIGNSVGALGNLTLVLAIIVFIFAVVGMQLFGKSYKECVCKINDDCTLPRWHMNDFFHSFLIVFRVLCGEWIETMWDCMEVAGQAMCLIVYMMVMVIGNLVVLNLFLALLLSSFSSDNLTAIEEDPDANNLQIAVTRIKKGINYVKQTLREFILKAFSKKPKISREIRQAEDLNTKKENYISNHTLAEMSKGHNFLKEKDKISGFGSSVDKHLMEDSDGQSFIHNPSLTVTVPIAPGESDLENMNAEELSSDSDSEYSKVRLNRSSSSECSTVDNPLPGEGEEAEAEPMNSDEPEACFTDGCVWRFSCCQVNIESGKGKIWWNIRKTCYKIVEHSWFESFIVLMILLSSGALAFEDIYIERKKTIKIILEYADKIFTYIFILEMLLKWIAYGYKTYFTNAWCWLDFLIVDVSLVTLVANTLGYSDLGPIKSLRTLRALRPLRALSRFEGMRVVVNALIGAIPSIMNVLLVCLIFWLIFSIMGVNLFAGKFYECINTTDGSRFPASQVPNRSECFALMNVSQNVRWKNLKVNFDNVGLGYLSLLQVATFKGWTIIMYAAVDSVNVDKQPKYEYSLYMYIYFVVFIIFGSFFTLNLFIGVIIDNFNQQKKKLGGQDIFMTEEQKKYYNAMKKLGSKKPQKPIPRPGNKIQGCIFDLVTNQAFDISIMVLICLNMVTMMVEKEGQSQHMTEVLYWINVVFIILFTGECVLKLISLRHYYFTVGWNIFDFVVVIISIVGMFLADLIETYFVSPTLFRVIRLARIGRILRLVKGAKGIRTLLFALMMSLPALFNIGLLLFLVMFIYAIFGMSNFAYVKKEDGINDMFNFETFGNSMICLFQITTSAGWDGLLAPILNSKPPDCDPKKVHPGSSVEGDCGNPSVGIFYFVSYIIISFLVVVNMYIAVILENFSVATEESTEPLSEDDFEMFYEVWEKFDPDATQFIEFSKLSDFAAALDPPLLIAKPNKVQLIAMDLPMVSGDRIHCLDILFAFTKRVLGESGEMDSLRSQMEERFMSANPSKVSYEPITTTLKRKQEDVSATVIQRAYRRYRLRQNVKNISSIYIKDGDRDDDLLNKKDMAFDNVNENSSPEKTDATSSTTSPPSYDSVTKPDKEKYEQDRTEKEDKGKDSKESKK
UniProt P56494, sequence (whole entry, looked up): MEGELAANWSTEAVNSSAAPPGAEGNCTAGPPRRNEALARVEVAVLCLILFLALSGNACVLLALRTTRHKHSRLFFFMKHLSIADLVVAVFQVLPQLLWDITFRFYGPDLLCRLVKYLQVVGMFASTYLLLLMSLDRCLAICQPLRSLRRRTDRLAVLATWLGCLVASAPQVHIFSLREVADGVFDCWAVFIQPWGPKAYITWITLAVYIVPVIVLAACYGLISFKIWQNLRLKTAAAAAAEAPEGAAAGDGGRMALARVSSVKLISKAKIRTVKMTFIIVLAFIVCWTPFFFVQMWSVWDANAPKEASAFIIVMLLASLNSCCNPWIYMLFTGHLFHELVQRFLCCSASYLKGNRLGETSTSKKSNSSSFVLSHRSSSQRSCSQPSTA

SMILES	target	test	system	setting	scale	measurement	value
C=CC(=O)Nc1cc(-c2nn(C3CCC(N4CCN(C(C)=O)CC4)CC3)c3ncnc(N)c23)ccc1Oc1ccccc1 (stereo not drawn)	Receptor tyrosine-protein kinase erbB-3 (ERBB3, Homo sapiens, UniProt P21860)	binding, LanthaScreen FRET				time to IC50 plateau	~3 h
CCN(Cc1ccccc1)C(=O)CCc1nc(CN2CCN(C(=O)Cc3ccc(OC)c(OC)c3)CC2)no1	Sodium channel protein type 9 subunit alpha (SCN9A, Homo sapiens, UniProt Q15858)	sodium current, whole-cell patch clamp	HEK293, stable	1 µM		inactivation V1/2	-77 ± 7.18 mV
CCCCC/C=C\C/C=C\C/C=C\C/C=C\CCCC(=O)NC(CO)C(=O)O (stereo in doubt)	Voltage-gated potassium channel, KQT; KCNQ2(Kv7.2)/KCNQ3(Kv7.3) (KCNQ3/KCNQ2, Homo sapiens, UniProt O43525+O43526)	two-electrode voltage clamp	Xenopus oocytes	10 µM, at +20 mV, 100 mM K+	reference: compound over control	activation time constant ratio	0.76 ± 0.02
C[C@H]1[C@H]2CCC[C@]1(c1cccc(O)c1)CCN2CCc1ccccc1	Mu-type opioid receptor (Oprm1, Mus musculus, UniProt P42866)	GTPγS binding, agonist, radiometric		cell membranes		Emax	20.8%
CCC(=O)C(NC(=O)c1ccccc1-c1ccc(C(F)(F)F)cc1)c1cccc(C(F)(F)F)c1 (stereo not drawn)	KLRK1 with MICA	ligand binding, inhibitor, TR-FRET	HEK293 expressing NKG2D and DAP10	added: MICA-Alexa647	reference: positive control	maximum inhibition	46%
Cn1cc(-c2cccc(CN3CCC4(CC3)COc3c4ccc4c3CN([C@H]3CCC(=O)NC3=O)C4=O)c2)cn1	DNA-binding protein Ikaros (Homo sapiens, UniProt Q13422)	degrader, HiBiT	HEK293	6 h		Dmax	< 20%
NC(Cc1ccccc1)C(O)CNCc1cccc(C(F)(F)F)c1 (stereo not drawn)	Amyloid-beta precursor protein, amyloid-beta 1-40 oligomers (APP, Homo sapiens, UniProt P05067)	binding, STD NMR		highest STD		STD NMR signal	0.89%
C=C(NC(=O)C(=C)NC(=O)c1csc(C2=NC3c4csc(n4)C4NC(=O)c5csc(n5)C(C(C)(O)C(C)O)NC(=O)C5CSC(=N5)C(=CC)NC(=O)C(C(C)O)NC(=O)c5csc(n5)C3(CC2)NC(=O)C(C)NC(=O)C(=C)NC(=O)C(C(C)C)NC2C=Cc3c(C(C)O)cc(nc3C2O)C(=O)OC4C)n1)C(N)=O (stereo not drawn)	Proteasome Macropain subunit MB1 (PSMB5, Homo sapiens, UniProt P28074)	chymotrypsin-like activity, inhibitor		added: Suc-LLVY-AMC	reference: thiostrepton A	IC50 fold change	≤ 6 fold
CNC(=O)C1CCN(c2cc(C)c(F)cc2NC(=O)c2ccc(-c3cc(O)ccc3C)c(C)c2)CC1	Ephrin type-A receptor 4 (EPHA4, Homo sapiens, UniProt P54764)	NanoBRET			reference: IC50 EPHA2 over EPHA4	selectivity ratio	11 fold
CN(C)C(=O)C(NC(=O)c1ccccc1-c1ccc(C(F)(F)F)cc1)c1cccc(C(F)(F)F)c1 (stereo not drawn)	NKG2-D type II integral membrane protein, with ULBP6 (KLRK1, Homo sapiens, UniProt P26718)					Emax	86%
C[C@@]1(O)CC[C@H]2[C@H](CC[C@@H]3[C@@H]2CC[C@]2(C)[C@@H](C(=O)Cn4cccn4)CC[C@@H]32)C1	Membrane progesterone receptor epsilon (Paqr9, Mus musculus, UniProt Q6TCG2)	pPKA/PKA immunoblot	MDA-MB-231 expressing Paqr9-GFP	3 nM, 20 min	reference: control	PKA activation	92.3 ± 11.7%
O=P(O)(O)Oc1ccccc1	Alkaline phosphatase PafA (pafA, Elizabethkingia meningoseptica, UniProt Q9KJX5, N100A)		Chryseobacterium meningosepticum	pH 8.0	reference: wild type over mutant kcat/KM	relative catalytic efficiency	5.5
CN[C@@H](C)C(=O)N[C@H](C(=O)N1C[C@@H](NC(=O)COCCOCCOCCOCc2cn(CCNC(=O)CN(Cc3cccs3)C(=O)[C@H](NS(=O)(=O)c3cc4ccc(O)nc4cc3Cl)c3ccccc3OC)nn2)C[C@H]1C(=O)N[C@@H]1CCCc2ccccc21)C1CCCCC1	UDP-N-acetylglucosamine--peptide N-acetylglucosaminyltransferase 110 kDa subunit (OGT, Homo sapiens, UniProt O15294)	western blot	MM1.S	0.1, 1.0 and 10 µM, 16 h		protein level	no effect
O=C(N[C@H]1CCOC1=O)c1cccc(-n2cc(C3CCCCC3)nn2)c1	lasR	reporter gene, agonist	Escherichia coli DH5α pJN105L/pSC11	10 µM	reference: OdDHL 100 µM	activation	0%
CC[C@H](C)[C@H](NC(=O)[C@H](Cc1c[nH]c2ccccc12)NC(=O)[C@H](CCCCN)NC(=O)[C@@H](NC(=O)[C@H](CC(C)C)NC(=O)[C@H](CCCCN)NC(=O)CNC(=O)[C@@H](NC(=O)[C@@H](NC(=O)[C@H](CO)NC(=O)[C@@H](NC(=O)[C@@H](NC(=O)[C@H](CCCCN)NC(=O)[C@H](CCC(N)=O)NC(=O)[C@H](C)NC(=O)[C@H](CCSC)NC=O)[C@@H](C)CC)[C@@H](C)CC)[C@@H](C)O)[C@@H](C)CC)C(C)C)C(=O)N[C@H](C(=O)N[C@@H](CCCCN)C(=O)N[C@H](C(=O)N[C@H](C(=O)N[C@@H](CC(N)=O)C(=O)N[C@@H](CCCCN)C(=O)N[C@@H](Cc1ccccc1)C(=O)N[C@H](C(=O)N[C@@H](CCCCN)C(=O)N[C@@H](CCCCN)C(=O)O)[C@@H](C)O)C(C)C)[C@@H](C)O)[C@@H](C)CC (racemic)	POPC membrane	membrane binding, stopped-flow FRET		mole fraction units, room temperature		binding free energy	-7 kcal/mol
C#CCNC(=O)c1ccc([P+](CCCC(=O)N[C@@H](CCCCNC(=O)c2cncc(OS(=O)(=O)F)c2)C(=O)N[C@@H](CCCNC(=N)N)C(=O)NC2CCC2)(c2ccccc2)c2ccccc2)cc1	NAD-dependent protein deacylase sirtuin-5, mitochondrial (SIRT5, Homo sapiens, UniProt Q9NXA8)	enzyme activity, inhibitor, jump-dilution		concentration not given, 16 h preincubation, 100-fold dilution	reference: DMSO	remaining activity	~10%
O=[N+]([O-])c1ccc(OP(=O)(O)O)cc1	Alkaline phosphatase PafA (pafA, Elizabethkingia meningoseptica, UniProt Q9KJX5, T79S)	substrate	Chryseobacterium meningosepticum			Km	2.9 µM
COc1ccc(-c2coc3cc(OCCN4CCCCC4)ccc3c2=O)cc1	Acetylcholinesterase (Ache, Rattus norvegicus, UniProt P37136)	inhibitor, Ellman method	rat			binding free energy	-9 kcal/mol
CCC(C)(CNC(=O)Nc1ccc(C(=O)Nc2nccs2)cc1)N1CCOCC1 (stereo not drawn)	pqsE (Pseudomonas aeruginosa, UniProt P20581, S160A)	thermal stability, DSF				ΔTm	8.5 °C
CO[P@](=O)(Oc1ccccc1)OC1CCCCC1	had (Sphingobium sp. TCM1, UniProt A0A077JBW9)	phenyl ester hydrolysis, substrate				Km	6 ± 2 µM
CN1C(CCc2ccccc2)CCC1CCc1ccccc1 (stereo not drawn)	Synaptic vesicular amine transporter (Slc18a2, Rattus norvegicus, UniProt Q01827)	binding	rat whole brain vesicles	added: [3H]dihydrotetrabenazine		maximal inhibition	97 ± 2%
O=C(Cn1cc(C2CC2)nn1)N[C@H]1CCOC1=O	lasR	reporter gene, agonist	Escherichia coli, DH5α pJN105L/pSC11	100 µM	reference: OdDHL at same concentration	activation	0%
C[C@]1(COC(=O)Cc2ccc(O)c(O)c2)[C@H](C(=O)O)N2C(=O)/C(=C/c3ccccn3)[C@H]2S1(=O)=O	Beta-lactamase (ampC, Pseudomonas aeruginosa, UniProt P24735)	enzyme activity, inhibitor, absorbance				kinact/KI	630000 M⁻¹ s⁻¹
CC(C)P(=[Se])(NP(=[Se])(C(C)C)C(C)C)C(C)C	Alpha-amylase (Bacillus subtilis, UniProt P00691)	fluorescence quenching		concentration not given, 310 K		number of binding sites	1.09 ± 0.08
CC[C@H](C)[C@H](NC(=O)[C@H](Cc1c[nH]cn1)NC(=O)[C@H](CCCCNC(=O)[C@@H](NC(=O)[C@H](CCCCN)NC(=O)[C@H](Cc1ccccc1)NC(=O)[C@H](CCCCNC(=O)[C@H](CC(C)C)NC(=O)[C@@H]1CCCN1C(=O)[C@H](CCCCN)NC(=O)c1ccc(O[C@@H]2O[C@H](CO)[C@H](O)[C@H](O)[C@H]2O)cc1)NC(=O)[C@H](CC(C)C)NC(=O)[C@@H]1CCCN1C(=O)[C@H](CCCCN)NC(=O)c1ccc(O[C@@H]2O[C@H](CO)[C@H](O)[C@H](O)[C@H]2O)cc1)[C@@H](C)CC)NC(=O)[C@@H](NC(=O)[C@H](CCCCN)NC(=O)[C@H](Cc1ccccc1)NC(=O)[C@H](CCCCNC(=O)[C@H](CC(C)C)NC(=O)[C@@H]1CCCN1C(=O)[C@H](CCCCN)NC(=O)c1ccc(O[C@@H]2O[C@H](CO)[C@H](O)[C@H](O)[C@H]2O)cc1)NC(=O)[C@H](CC(C)C)NC(=O)[C@@H]1CCCN1C(=O)[C@H](CCCCN)NC(=O)c1ccc(O[C@@H]2O[C@H](CO)[C@H](O)[C@H](O)[C@H]2O)cc1)[C@@H](C)CC)C(N)=O	lecA	binding, isothermal titration calorimetry		divided by galactoside copies	reference: monovalent galactoside KD over ligand KD	relative potency per galactoside	300
CC[C@H](C)[C@@H]1NC(=O)[C@H](Cc2ccc(O)cc2)NC(=O)[C@@H](N)CSSC[C@@H](C(=O)N2CCC[C@H]2C(=O)N[C@@H](CC(C)C)C(=O)NCC(N)=O)NC(=O)[C@H](CC(N)=O)NC(=O)[C@H](CCC(N)=O)NC1=O	Oxytocin receptor (Macaca mulatta, UniProt P56494)	membrane hyperpolarisation	CHO cells			Emax	2270 RFU
CC[C@H](C)[C@H](NC(=O)[C@@H]1CCCN1C(=O)[C@H](Cc1c[nH]cn1)NC(=O)[C@@H](NC(=O)[C@H](Cc1ccc(O)cc1)NC(=O)[C@@H](NC(=O)[C@H](CCCNC(=N)N)NC(=O)CNC)C(C)C)[C@@H](C)CC)C(=O)O	Type-1 angiotensin II receptor A (Agtr1, Rattus norvegicus, UniProt P25095)	intracellular calcium, agonist	HEK293 cells	2 min		Emax	41 ± 2%
C[C@H](NC(=O)[C@H](Cc1ccccc1)NC(=O)c1ccc(Br)cc1)C(=O)N[C@H](C(=O)N[C@@H](CCCC[N+](C)(C)C)C(=O)N[C@@H](CO)C(N)=O)C1CCCC1	Chromobox protein homolog 2 (Homo sapiens, UniProt Q14781)	competitive fluorescence polarization			reference: Cbx7 over Chromobox protein homolog 2	selectivity ratio	2.1 fold
CC[C@H](C)[C@H](NC(=O)[C@H](Cc1c[nH]cn1)NC(=O)[C@H](CCCCNC(=O)[C@@H](NC(=O)[C@H](CCCCN)NC(=O)[C@H](Cc1ccccc1)NC(=O)[C@H](CCCCNC(=O)[C@H](CC(C)C)NC(=O)[C@@H]1CCCN1C(=O)[C@H](CCCCN)NC(=O)c1ccc(O[C@@H]2O[C@H](CO)[C@H](O)[C@H](O)[C@H]2O)cc1)NC(=O)[C@H](CC(C)C)NC(=O)[C@@H]1CCCN1C(=O)[C@H](CCCCN)NC(=O)c1ccc(O[C@@H]2O[C@H](CO)[C@H](O)[C@H](O)[C@H]2O)cc1)[C@@H](C)CC)NC(=O)[C@@H](NC(=O)[C@H](CCCCN)NC(=O)[C@H](Cc1ccccc1)NC(=O)[C@H](CCCCNC(=O)[C@H](CC(C)C)NC(=O)[C@@H]1CCCN1C(=O)[C@H](CCCCN)NC(=O)c1ccc(O[C@@H]2O[C@H](CO)[C@H](O)[C@H](O)[C@H]2O)cc1)NC(=O)[C@H](CC(C)C)NC(=O)[C@@H]1CCCN1C(=O)[C@H](CCCCN)NC(=O)c1ccc(O[C@@H]2O[C@H](CO)[C@H](O)[C@H](O)[C@H]2O)cc1)[C@@H](C)CC)C(N)=O	lecA	ITC		pH 7.5, 25 °C		entropy term (−TΔS)	2.6 ± 1.5 kcal/mol
CN(C)C(=O)[C@@H](NC(=O)c1cc(-c2ccnn2C)ccc1-c1ccc(C(F)(F)F)cc1)c1cccc(C(F)(F)F)c1	KLRK1 with MICA	ligand binding, inhibitor, TR-FRET	HEK293 expressing NKG2D and DAP10	added: MICA-Alexa647	reference: positive control	maximum inhibition	101%

Excerpt of the above:
SMILES	target	test	system	setting	scale	measurement	value
CN1C(CCc2ccccc2)CCC1CCc1ccccc1 (stereo not drawn)	Synaptic vesicular amine transporter (Slc18a2, Rattus norvegicus, UniProt Q01827)	binding	rat whole brain vesicles	added: [3H]dihydrotetrabenazine		maximal inhibition	97 ± 2%
O=C(Cn1cc(C2CC2)nn1)N[C@H]1CCOC1=O	lasR	reporter gene, agonist	Escherichia coli, DH5α pJN105L/pSC11	100 µM	reference: OdDHL at same concentration	activation	0%
C[C@]1(COC(=O)Cc2ccc(O)c(O)c2)[C@H](C(=O)O)N2C(=O)/C(=C/c3ccccn3)[C@H]2S1(=O)=O	Beta-lactamase (ampC, Pseudomonas aeruginosa, UniProt P24735)	enzyme activity, inhibitor, absorbance				kinact/KI	630000 M⁻¹ s⁻¹
CC(C)P(=[Se])(NP(=[Se])(C(C)C)C(C)C)C(C)C	Alpha-amylase (Bacillus subtilis, UniProt P00691)	fluorescence quenching		concentration not given, 310 K		number of binding sites	1.09 ± 0.08
CC[C@H](C)[C@H](NC(=O)[C@H](Cc1c[nH]cn1)NC(=O)[C@H](CCCCNC(=O)[C@@H](NC(=O)[C@H](CCCCN)NC(=O)[C@H](Cc1ccccc1)NC(=O)[C@H](CCCCNC(=O)[C@H](CC(C)C)NC(=O)[C@@H]1CCCN1C(=O)[C@H](CCCCN)NC(=O)c1ccc(O[C@@H]2O[C@H](CO)[C@H](O)[C@H](O)[C@H]2O)cc1)NC(=O)[C@H](CC(C)C)NC(=O)[C@@H]1CCCN1C(=O)[C@H](CCCCN)NC(=O)c1ccc(O[C@@H]2O[C@H](CO)[C@H](O)[C@H](O)[C@H]2O)cc1)[C@@H](C)CC)NC(=O)[C@@H](NC(=O)[C@H](CCCCN)NC(=O)[C@H](Cc1ccccc1)NC(=O)[C@H](CCCCNC(=O)[C@H](CC(C)C)NC(=O)[C@@H]1CCCN1C(=O)[C@H](CCCCN)NC(=O)c1ccc(O[C@@H]2O[C@H](CO)[C@H](O)[C@H](O)[C@H]2O)cc1)NC(=O)[C@H](CC(C)C)NC(=O)[C@@H]1CCCN1C(=O)[C@H](CCCCN)NC(=O)c1ccc(O[C@@H]2O[C@H](CO)[C@H](O)[C@H](O)[C@H]2O)cc1)[C@@H](C)CC)C(N)=O	lecA	binding, isothermal titration calorimetry		divided by galactoside copies	reference: monovalent galactoside KD over ligand KD	relative potency per galactoside	300
